Assay results gathered from unrelated publications.
Each line is one published result; not all experiments were run side by side. ± marks the error that the study gave.
Target: Glucagon-like peptide 1 receptor (GLP1R, Homo sapiens, UniProt P43220)
Chain of UniProt P43220 (whole entry, looked up): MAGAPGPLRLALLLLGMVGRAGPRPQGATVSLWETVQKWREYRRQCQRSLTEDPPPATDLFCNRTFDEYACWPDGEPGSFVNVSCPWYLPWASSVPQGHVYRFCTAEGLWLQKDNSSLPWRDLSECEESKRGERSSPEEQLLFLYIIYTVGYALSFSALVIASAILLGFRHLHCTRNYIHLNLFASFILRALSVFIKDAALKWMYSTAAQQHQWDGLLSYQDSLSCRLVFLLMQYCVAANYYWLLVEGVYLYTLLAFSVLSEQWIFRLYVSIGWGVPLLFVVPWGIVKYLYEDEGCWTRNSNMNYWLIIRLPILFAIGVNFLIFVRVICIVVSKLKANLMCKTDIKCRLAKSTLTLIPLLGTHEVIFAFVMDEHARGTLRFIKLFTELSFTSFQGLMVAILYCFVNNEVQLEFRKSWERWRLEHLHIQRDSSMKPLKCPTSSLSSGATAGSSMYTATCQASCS

`CC[C@H](C)[C@H](NC(=O)[C@H](CC(N)=O)NC(=O)[C@H](CC(N)=O)NC(=O)[C@H](CCCNC(=N)N)NC(=O)[C@H](CC(N)=O)NC(=O)[C@H](CCCNC(=N)N)NC(=O)[C@H](CCCCN)NC(=O)[C@@H](NC(=O)[C@H](CC(N)=O)NC(=O)[C@H](CCSC)NC(=O)[C@H](CC(C)C)NC(=O)[C@H](Cc1c[nH]c2ccccc12)NC(=O)[C@H](CS)NC(=O)[C@@H](NC(=O)[C@H](Cc1ccccc1)NC(=O)[C@H](CC(=O)O)NC(=O)[C@H](CCC(N)=O)NC(=O)[C@H](C)NC(=O)[C@H](CCCNC(=N)N)NC(=O)[C@H](CS)NC(=O)[C@H](CCC(=O)O)NC(=O)[C@H](CC(=O)O)NC(=O)[C@H](CC(C)C)NC(=O)[C@H](Cc1ccc(O)cc1)NC(=O)[C@H](CCCCN)NC(=O)[C@H](CO)NC(=O)[C@H](Cc1ccc(O)cc1)NC(=O)[C@H](CC(=O)O)NC(=O)[C@H](CO)NC(=O)[C@@H](NC(=O)[C@H](Cc1ccccc1)NC(=O)[C@@H](NC(=O)CNC(=O)[C@H](CCC(N)=O)NC(=O)[C@@H](CO)NC(=O)[C@@H](N)Cc1c[nH]cn1)[C@@H](C)O)[C@@H](C)O)C(C)C)[C@@H](C)O)C(=O)N[C@@H](C)C(N)=O` has an EC50 of roughly 400 nM (reporter gene, agonist, luciferase).
`CC[C@H](C)[C@H](NC(=O)[C@H](Cc1ccccc1)NC(=O)[C@H](CCC(=O)O)NC(=O)[C@H](CCCCN)NC(=O)[C@H](C)NC(=O)[C@H](C)NC(=O)[C@H](CCC(N)=O)NC(=O)CNC(=O)[C@H](CCC(=O)O)NC(=O)[C@H](CC(C)C)NC(=O)[C@H](Cc1ccc(O)cc1)NC(=O)[C@H](CO)NC(=O)[C@H](CO)NC(=O)[C@@H](NC(=O)[C@H](CC(=O)O)NC(=O)[C@H](CO)NC(=O)[C@@H](NC(=O)[C@H](Cc1ccccc1)NC(=O)[C@@H](NC(=O)CNC(=O)[C@H](Cc1ccc([N+](=O)[O-])cc1)NC(=O)[C@H](C)NC(=O)[C@@H](N)Cc1c[nH]cn1)[C@@H](C)O)[C@@H](C)O)C(C)C)C(=O)N[C@@H](C)C(=O)N[C@@H](Cc1c[nH]c2ccccc12)C(=O)N[C@@H](CC(C)C)C(=O)N[C@H](C(=O)N[C@@H](CCCCN)C(=O)NCC(=O)N[C@@H](CCCNC(=N)N)C(=O)NCC(=O)O)C(C)C` gave an EC50 of 160 ± 50 nM (agonist).
For `CC[C@H](C)[C@H](NC(=O)[C@H](Cc1ccccc1)NC(=O)[C@H](CCC(=O)O)NC(=O)[C@H](CCCCN)NC(=O)[C@H](C)NC(=O)[C@H](C)NC(=O)[C@H](CCC(N)=O)NC(=O)CNC(=O)[C@H](CCC(=O)O)NC(=O)[C@H](CC(C)C)NC(=O)[C@H](Cc1ccc(O)cc1)NC(=O)[C@H](CO)NC(=O)[C@H](CO)NC(=O)[C@@H](NC(=O)[C@H](CC(=O)O)NC(=O)[C@H](CO)NC(=O)[C@@H](NC(=O)[C@H](Cc1ccccc1)NC(=O)[C@@H](NC(=O)CNC(=O)[C@@H](N)CCC(=O)O)[C@@H](C)O)[C@@H](C)O)C(C)C)C(=O)N[C@@H](C)C(=O)N[C@@H](Cc1c[nH]c2ccccc12)C(=O)N[C@@H](CC(C)C)C(=O)N[C@H](C(=O)N[C@@H](CCCCN)C(=O)NCC(=O)N[C@@H](CCCNC(=N)N)C(N)=O)C(C)C`, the EC50 was 1120 nM (cAMP, agonist).
With `CC[C@H](C)[C@H](NC(=O)[C@H](Cc1ccccc1)NC(=O)[C@H](CCC(=O)O)NC(=O)[C@H](CCCCN)NC(=O)[C@H](C)NC(=O)[C@H](C)NC(=O)[C@H](CCC(N)=O)NC(=O)CNC(=O)[C@H](CCC(=O)O)NC(=O)[C@H](CC(C)C)NC(=O)[C@H](Cc1ccc(O)cc1)NC(=O)[C@H](CO)NC(=O)[C@H](CO)NC(=O)C(C)(C)NC(=O)[C@H](CC(=O)O)NC(=O)[C@H](CO)NC(=O)[C@@H](NC(=O)[C@H](Cc1ccccc1)NC(=O)[C@@H](NC(=O)CNC(=O)[C@H](CCC(=O)O)NC(=O)[C@H](C)NC(=O)[C@@H](N)Cc1c[nH]cn1)[C@@H](C)O)[C@@H](C)O)C(=O)N[C@@H](C)C(=O)N[C@@H](Cc1c[nH]c2ccccc12)C(=O)N[C@@H](CC(C)C)C(=O)N[C@H](C(=O)N[C@@H](CCCCN)C(=O)NCC(=O)N[C@@H](CCCNC(=N)N)C(=O)NCC(N)=O)C(C)C` the EC50 was 0.158 nM (cAMP, agonist, luciferase).
`COc1ccccc1-c1cc(C(F)(F)F)nc(S(=O)(=O)CCCC(=O)Nc2ccn(Cc3ccc(C)cc3)n2)n1` gave an EC50 of 3700 nM (cAMP, agonist).
The EC50 of `CC[C@@H](C)[C@@H](NC(=O)[C@@H](C)NC(=O)[C@@H](CCC(=O)O)NC(=O)[C@H](NC(=O)[C@@H](CC(C)C)NC(=O)[C@@H](CCC(=O)O)NC(=O)CNC(=O)[C@@H](C)NC(=O)[C@@H](C)NC(=O)[C@@H](CC(C)C)NC(=O)[C@H](NC(=O)[C@@H](Cc1ccccc1)NC(=O)[C@@H](CC(C)C)NC(=O)[C@@H](CCC(=O)O)NC(=O)[C@@H](CC(C)C)NC(=O)[C@@H](Cc1ccccc1)NC(=O)[C@@H](C)NC(=O)[C@@H](CCCCN)NC(=O)CNC(=O)[C@H](N)CCCNC(=N)N)[C@H](C)CC)[C@H](C)CC)C(=O)N[C@H](CC(=O)O)C(=O)N[C@H](CCCNC(=N)N)C(=O)N[C@@H](C(=O)N[C@H](Cc1ccccc1)C(=O)N[C@@H](C(=O)NCC(=O)N[C@H](CCC(=O)O)C(=O)N[C@H](C)C(=O)N[C@H](Cc1c[nH]cn1)C(=O)O)[C@H](C)O)[C@H](C)O` is reported as 2200 nM (reporter gene, agonist, luciferase).
`COc1ccc(-c2cc(C(F)(F)F)nc(NCc3ccccc3)n2)cc1` gave an EC50 of 20000 ± 21000 nM (cAMP accumulation, positive allosteric modulator; HEK-293T overexpressing GLP1R; with: EC20 GLP-1).
For `CC[C@H](C)[C@H](NC(=O)[C@H](Cc1ccccc1)NC(=O)[C@H](CCC(=O)O)NC(=O)[C@H](CCCCN)NC(=O)[C@H](C)NC(=O)[C@H](C)NC(=O)[C@H](CCC(N)=O)NC(=O)CNC(=O)[C@H](CCC(=O)O)NC(=O)[C@H](CC(C)C)NC(=O)[C@H](Cc1ccc(O)cc1)NC(=O)[C@H](CO)NC(=O)[C@H](CO)NC(=O)[C@@H](NC(=O)[C@H](CC(=O)O)NC(=O)[C@H](CO)NC(=O)[C@@H](NC(=O)[C@H](Cc1ccccc1)NC(=O)[C@@H](NC(=O)CNC(=O)[C@H](CCC(=O)O)NC(=O)[C@H](C)NC(=O)[C@@H](N)Cc1c[nH]cn1)[C@@H](C)O)[C@@H](C)O)C(C)C)C(=O)N[C@@H](C)C(=O)N[C@@H](Cc1c[nH]c2ccccc12)C(=O)N[C@@H](CC(C)C)C(=O)N[C@H](C(=O)N[C@@H](CCCNC(=N)N)C(=O)NCC(=O)N[C@@H](CCCNC(=N)N)C(N)=O)C(C)C`, the EC50 was 4.1 nM (reporter gene, agonist, luciferase).

Repeated from above:
`CC[C@H](C)[C@H](NC(=O)[C@H](CC(N)=O)NC(=O)[C@H](CC(N)=O)NC(=O)[C@H](CCCNC(=N)N)NC(=O)[C@H](CC(N)=O)NC(=O)[C@H](CCCNC(=N)N)NC(=O)[C@H](CCCCN)NC(=O)[C@@H](NC(=O)[C@H](CC(N)=O)NC(=O)[C@H](CCSC)NC(=O)[C@H](CC(C)C)NC(=O)[C@H](Cc1c[nH]c2ccccc12)NC(=O)[C@H](CS)NC(=O)[C@@H](NC(=O)[C@H](Cc1ccccc1)NC(=O)[C@H](CC(=O)O)NC(=O)[C@H](CCC(N)=O)NC(=O)[C@H](C)NC(=O)[C@H](CCCNC(=N)N)NC(=O)[C@H](CS)NC(=O)[C@H](CCC(=O)O)NC(=O)[C@H](CC(=O)O)NC(=O)[C@H](CC(C)C)NC(=O)[C@H](Cc1ccc(O)cc1)NC(=O)[C@H](CCCCN)NC(=O)[C@H](CO)NC(=O)[C@H](Cc1ccc(O)cc1)NC(=O)[C@H](CC(=O)O)NC(=O)[C@H](CO)NC(=O)[C@@H](NC(=O)[C@H](Cc1ccccc1)NC(=O)[C@@H](NC(=O)CNC(=O)[C@H](CCC(N)=O)NC(=O)[C@@H](CO)NC(=O)[C@@H](N)Cc1c[nH]cn1)[C@@H](C)O)[C@@H](C)O)C(C)C)[C@@H](C)O)C(=O)N[C@@H](C)C(N)=O` has an EC50 of roughly 400 nM (reporter gene, agonist, luciferase).
